Published values of several laboratories.
Each numbered part is a random draw from the data of one study; scales do not carry over between parts.
UniProt Q9UBE8, sequence (whole entry, looked up): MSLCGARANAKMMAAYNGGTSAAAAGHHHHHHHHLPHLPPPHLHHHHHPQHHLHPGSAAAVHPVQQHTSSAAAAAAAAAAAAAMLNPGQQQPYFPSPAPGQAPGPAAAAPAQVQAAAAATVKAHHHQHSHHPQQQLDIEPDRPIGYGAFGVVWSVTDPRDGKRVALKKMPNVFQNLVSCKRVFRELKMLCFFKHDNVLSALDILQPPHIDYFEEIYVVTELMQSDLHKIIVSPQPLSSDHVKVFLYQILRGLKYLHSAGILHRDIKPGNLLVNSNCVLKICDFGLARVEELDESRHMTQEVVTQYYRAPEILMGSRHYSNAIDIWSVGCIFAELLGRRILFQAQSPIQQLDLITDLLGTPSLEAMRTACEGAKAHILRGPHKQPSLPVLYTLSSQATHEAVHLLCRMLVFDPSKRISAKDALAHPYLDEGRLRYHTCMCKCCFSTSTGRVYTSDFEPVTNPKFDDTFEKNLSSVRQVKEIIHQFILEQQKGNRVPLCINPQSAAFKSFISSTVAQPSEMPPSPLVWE
UniProt P0C264, sequence (whole entry, looked up): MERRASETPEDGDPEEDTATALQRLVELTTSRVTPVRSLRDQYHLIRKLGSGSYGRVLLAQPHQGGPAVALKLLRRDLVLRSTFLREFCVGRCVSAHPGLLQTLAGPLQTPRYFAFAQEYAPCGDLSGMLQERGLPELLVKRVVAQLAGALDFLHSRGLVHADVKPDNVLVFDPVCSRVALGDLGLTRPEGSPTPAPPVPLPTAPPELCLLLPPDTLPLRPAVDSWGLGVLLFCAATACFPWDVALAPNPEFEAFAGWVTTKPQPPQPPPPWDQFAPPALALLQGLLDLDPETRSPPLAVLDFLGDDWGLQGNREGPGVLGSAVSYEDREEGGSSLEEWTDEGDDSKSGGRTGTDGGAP
UniProt O76039, sequence (whole entry, looked up): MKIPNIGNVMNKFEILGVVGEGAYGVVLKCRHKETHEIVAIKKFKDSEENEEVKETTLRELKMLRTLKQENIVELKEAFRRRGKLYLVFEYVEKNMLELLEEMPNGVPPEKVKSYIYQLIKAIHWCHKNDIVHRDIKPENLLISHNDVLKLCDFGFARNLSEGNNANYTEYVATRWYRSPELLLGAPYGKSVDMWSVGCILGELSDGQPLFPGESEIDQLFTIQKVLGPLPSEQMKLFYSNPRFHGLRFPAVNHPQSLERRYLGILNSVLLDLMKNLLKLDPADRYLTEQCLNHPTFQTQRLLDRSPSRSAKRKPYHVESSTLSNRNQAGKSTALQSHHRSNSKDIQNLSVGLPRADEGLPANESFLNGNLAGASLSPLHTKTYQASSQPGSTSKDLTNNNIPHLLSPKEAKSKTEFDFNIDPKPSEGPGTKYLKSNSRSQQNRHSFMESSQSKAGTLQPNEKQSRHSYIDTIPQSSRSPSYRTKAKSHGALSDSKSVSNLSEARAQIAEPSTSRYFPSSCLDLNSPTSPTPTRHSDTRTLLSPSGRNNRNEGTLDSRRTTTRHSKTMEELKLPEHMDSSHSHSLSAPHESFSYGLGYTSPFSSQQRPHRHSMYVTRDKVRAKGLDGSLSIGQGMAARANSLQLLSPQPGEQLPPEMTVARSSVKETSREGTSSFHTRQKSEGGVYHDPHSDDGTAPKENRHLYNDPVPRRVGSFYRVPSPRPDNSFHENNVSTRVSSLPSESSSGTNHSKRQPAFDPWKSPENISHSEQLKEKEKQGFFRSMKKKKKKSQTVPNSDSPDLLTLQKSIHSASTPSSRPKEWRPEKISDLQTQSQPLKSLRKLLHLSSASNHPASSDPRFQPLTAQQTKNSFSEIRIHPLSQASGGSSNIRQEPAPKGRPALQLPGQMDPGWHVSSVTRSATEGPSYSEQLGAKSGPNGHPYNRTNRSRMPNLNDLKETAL
UniProt Q16584, sequence (whole entry, looked up): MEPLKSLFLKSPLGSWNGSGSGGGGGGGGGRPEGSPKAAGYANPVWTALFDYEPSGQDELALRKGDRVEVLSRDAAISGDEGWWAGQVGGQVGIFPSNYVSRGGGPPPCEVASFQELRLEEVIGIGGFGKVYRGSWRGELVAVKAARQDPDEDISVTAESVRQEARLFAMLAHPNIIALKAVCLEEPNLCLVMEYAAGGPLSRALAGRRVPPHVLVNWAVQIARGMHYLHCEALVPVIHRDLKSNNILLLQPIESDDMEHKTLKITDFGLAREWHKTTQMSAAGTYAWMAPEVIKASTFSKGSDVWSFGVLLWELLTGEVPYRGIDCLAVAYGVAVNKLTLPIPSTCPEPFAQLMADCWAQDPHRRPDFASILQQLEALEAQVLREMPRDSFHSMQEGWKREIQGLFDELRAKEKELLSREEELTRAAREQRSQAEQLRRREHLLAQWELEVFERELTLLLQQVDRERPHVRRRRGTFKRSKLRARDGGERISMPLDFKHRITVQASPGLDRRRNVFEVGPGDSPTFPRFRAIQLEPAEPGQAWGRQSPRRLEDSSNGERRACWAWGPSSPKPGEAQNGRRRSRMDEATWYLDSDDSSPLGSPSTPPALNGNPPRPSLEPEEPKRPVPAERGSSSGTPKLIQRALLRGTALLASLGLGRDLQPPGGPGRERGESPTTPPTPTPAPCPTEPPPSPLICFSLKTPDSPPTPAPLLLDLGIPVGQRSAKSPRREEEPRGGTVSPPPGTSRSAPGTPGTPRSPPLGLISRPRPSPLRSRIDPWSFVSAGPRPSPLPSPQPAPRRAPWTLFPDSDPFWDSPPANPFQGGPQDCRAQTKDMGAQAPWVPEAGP
UniProt P21860, sequence (whole entry, looked up): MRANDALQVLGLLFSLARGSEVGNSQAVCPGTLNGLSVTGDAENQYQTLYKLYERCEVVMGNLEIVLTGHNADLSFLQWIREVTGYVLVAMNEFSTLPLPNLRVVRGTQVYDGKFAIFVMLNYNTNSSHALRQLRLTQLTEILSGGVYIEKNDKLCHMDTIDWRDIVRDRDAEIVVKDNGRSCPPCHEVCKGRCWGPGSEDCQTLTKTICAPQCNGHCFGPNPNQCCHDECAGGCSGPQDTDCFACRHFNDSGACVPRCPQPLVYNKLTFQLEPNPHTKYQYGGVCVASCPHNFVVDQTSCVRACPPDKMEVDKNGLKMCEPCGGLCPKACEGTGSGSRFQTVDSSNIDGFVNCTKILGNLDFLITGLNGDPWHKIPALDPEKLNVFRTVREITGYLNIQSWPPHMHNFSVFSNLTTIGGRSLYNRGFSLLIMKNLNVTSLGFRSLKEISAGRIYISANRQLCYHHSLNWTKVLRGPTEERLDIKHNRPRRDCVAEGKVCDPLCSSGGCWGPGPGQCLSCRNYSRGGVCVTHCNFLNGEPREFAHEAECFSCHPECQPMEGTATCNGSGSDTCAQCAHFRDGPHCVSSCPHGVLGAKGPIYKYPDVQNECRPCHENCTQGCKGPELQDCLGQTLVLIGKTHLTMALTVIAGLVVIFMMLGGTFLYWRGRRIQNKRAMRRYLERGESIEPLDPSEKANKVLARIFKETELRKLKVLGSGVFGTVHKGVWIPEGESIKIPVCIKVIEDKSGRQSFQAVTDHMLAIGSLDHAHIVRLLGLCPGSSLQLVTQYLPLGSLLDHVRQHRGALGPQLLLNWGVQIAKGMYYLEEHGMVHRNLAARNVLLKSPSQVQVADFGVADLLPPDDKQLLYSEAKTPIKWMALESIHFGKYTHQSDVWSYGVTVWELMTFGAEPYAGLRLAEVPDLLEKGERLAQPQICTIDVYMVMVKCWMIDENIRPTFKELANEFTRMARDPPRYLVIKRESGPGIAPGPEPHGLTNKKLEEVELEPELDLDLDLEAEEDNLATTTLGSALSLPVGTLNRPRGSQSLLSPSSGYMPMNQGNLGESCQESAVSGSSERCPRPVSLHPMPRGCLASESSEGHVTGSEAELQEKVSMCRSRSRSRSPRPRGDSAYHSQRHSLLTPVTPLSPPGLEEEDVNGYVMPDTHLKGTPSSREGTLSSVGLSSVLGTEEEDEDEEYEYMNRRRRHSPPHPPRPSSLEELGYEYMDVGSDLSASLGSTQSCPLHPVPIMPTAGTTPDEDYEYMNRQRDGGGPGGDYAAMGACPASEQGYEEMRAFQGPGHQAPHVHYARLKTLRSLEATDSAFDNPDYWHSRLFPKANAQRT

Set 1
Target: Cytoplasmic tyrosine-protein kinase BMX (BMX, Homo sapiens, UniProt P51813)
UniProt P51813, sequence (whole entry, looked up): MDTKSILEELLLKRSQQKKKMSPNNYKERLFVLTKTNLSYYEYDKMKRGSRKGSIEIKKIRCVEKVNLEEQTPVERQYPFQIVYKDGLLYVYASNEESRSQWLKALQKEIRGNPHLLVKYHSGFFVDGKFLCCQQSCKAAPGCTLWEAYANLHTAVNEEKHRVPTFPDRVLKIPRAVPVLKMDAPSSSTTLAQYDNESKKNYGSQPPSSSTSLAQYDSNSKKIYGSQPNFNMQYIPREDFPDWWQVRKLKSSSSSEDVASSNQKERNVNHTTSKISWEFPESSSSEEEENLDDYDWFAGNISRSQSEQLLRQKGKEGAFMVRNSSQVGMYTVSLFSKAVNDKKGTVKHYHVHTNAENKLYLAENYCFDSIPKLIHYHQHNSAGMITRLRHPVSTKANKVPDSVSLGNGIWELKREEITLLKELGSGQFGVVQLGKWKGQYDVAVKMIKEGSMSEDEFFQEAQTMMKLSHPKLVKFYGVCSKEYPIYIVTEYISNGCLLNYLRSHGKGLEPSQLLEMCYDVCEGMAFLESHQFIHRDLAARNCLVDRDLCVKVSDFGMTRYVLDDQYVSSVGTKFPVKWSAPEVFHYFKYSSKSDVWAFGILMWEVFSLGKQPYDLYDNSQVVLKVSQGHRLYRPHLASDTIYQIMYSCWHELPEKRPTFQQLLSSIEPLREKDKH
Observed: enzyme activity
Action: inhibitor
Tested at: 0.5 µM
Baseline: control
| SMILES | remaining activity [%] |
| --- | --- |
| Cc1cccc(-c2[nH]c(C(C)(C)C)nc2-c2ccc3c(c2)OCO3)n1 | 82 |
| CNC(=O)c1cc(Oc2ccc(NC(=O)Nc3ccc(Cl)c(C(F)(F)F)c3)cc2)ccn1 | 93.3 |
| Nc1ncnc2n[nH]c(Nc3ccc(F)cc3)c12 | 89.6 |
| COc1ccc(OC)c2c(=S)c3ccccc3[nH]c12 | 105 |
| CN(C)c1ccc(C=C2C(=O)Nc3ccccc32)cc1 | 92.2 |
| O=C1NC(=O)C(c2cn(CCCn3ccnc3)c3ccccc23)=C1Nc1ccccc1 | 90 |
| Cc1ccc(Nc2nccc(N(C)c3ccc4c(C)n(C)nc4c3)n2)cc1S(N)(=O)=O | 93.4 |
| CO[C@H]1C[C@@H]2CC[C@@H](C)[C@@](O)(O2)C(=O)C(=O)N2CCCC[C@H]2C(=O)O[C@H]([C@H](C)C[C@@H]2CC[C@@H](O)[C@H](OC)C2)CC(=O)[C@H](C)/C=C(\C)[C@@H](O)[C@@H](OC)C(=O)[C@H](C)C[C@H](C)/C=C/C=C/C=C/1C | 96.6 |
| COc1cc2ncnc(Nc3ccc(F)c(Cl)c3)c2cc1OCCCN1CCOCC1 | 102 |
| Cn1sc(=O)n(Cc2ccccc2)c1=O | 91.6 |
| Cn1c2ccccc2c2c3c(c4c5ccccc5n(CCC#N)c4c21)CNC3=O | 13.7 |
| Cc1nc(-c2ccccc2)c(-c2ccncc2)o1 | 102 |
| COc1cc2ncnc(Nc3ccc(Oc4ccccc4)cc3)c2cc1OC | 76.1 |

Set 2
Cell line: A-375
Tested at: 100 µM
Time: 36 h
| SMILES | viability [%] |
| --- | --- |
| CC(C)OC(=O)C(C(=O)OC(C)C)=C1SC=CS1 | 10.4 |
| Cc1ncc([N+](=O)[O-])n1C | 108 |
| CCC(C)(Oc1ccc(C2(c3ccc(OC(C)(CC)C(=O)O)cc3)CCCCC2)cc1)C(=O)O (stereo not shown) | 95.6 |
| CCC(=O)c1c(O)cc(O)cc1O | 107 |

Set 3
Organism: Sarcocystis neurona
Observed: parasite growth
Tested at: 10 µM
Time: 96 h
Notes: second screen
Baseline: untreated
| SMILES | log2 fold change |
| --- | --- |
| CC1=NS(=O)(=O)c2cc(Cl)ccc2N1 | 0.23 |
| CCOc1ccc2ccccc2c1C(=O)N[C@@H]1C(=O)N2[C@@H]1SC(C)(C)[C@@H]2C(=O)O | 0.29 |
| CC(C(O)c1ccc(O)cc1)N1CCC(Cc2ccccc2)CC1 (stereo not shown) | 0.26 |
| CC(C)Oc1ccc2c(=O)c(-c3ccccc3)coc2c1 | 2.79 |
| Cc1ccc(S(=O)(=O)NC(=O)NN2CCCCCC2)cc1 | 0.23 |
| COc1cc(C(=O)NS(=O)(=O)c2ccccc2C)ccc1Cc1cn(C)c2ccc(NC(=O)OC3CCCC3)cc12 | 0.46 |
| COc1ccc([C@@H]2Sc3ccccc3N(CCN(C)C)C(=O)[C@@H]2OC(C)=O)cc1 | -0.13 |

Set 4
SMILES: O=C(Nc1cccnn1)N1CCC(=Cc2cccc(Oc3ccc(C(F)(F)F)cn3)c2)CC1
Observed: cell-free assay
Method: competition with immobilised ligand
Tested at: 1 µM
| target | remaining binding [%] |
| --- | --- |
| Cyclin-dependent kinase-like 5 (CDKL5, Homo sapiens, UniProt O76039) | 100 |
| Uncharacterized serine/threonine-protein kinase SBK3 (SBK3, Homo sapiens, UniProt P0C264) | 100 |
| Receptor tyrosine-protein kinase erbB-3 (ERBB3, Homo sapiens, UniProt P21860) | 84 |
| Tyrosine-protein kinase ABL1, phosphorylated (ABL1, Homo sapiens, UniProt P00519, M351T) | 99 |
| Activated CDC42 kinase 1 (TNK2, Homo sapiens, UniProt Q07912) | 100 |
| Mitogen-activated protein kinase kinase kinase 11 (MAP3K11, Homo sapiens, UniProt Q16584) | 74 |
| Serine/threonine-protein kinase NLK (NLK, Homo sapiens, UniProt Q9UBE8) | 100 |

For quick reference, copied from above (set 4):
| target | remaining binding [%] |
| --- | --- |
| Mitogen-activated protein kinase kinase kinase 11 (MAP3K11, Homo sapiens, UniProt Q16584) | 74 |
| Tyrosine-protein kinase ABL1, phosphorylated (ABL1, Homo sapiens, UniProt P00519, M351T) | 99 |
| Cyclin-dependent kinase-like 5 (CDKL5, Homo sapiens, UniProt O76039) | 100 |
